# Assay results gathered from unrelated publications.
# Each numbered part is a random draw from the data of one study; scales do not carry over between parts. Changes are numbered by the printed parent chain.

# Block 1
# Target: CCNB1, cyclin fold, Cln2 fusion (human)
# Technique: yeast growth competition, sequencing
# Medium: yeast
# Notes: weak parent motif
# Baseline: not given
# Direction: higher = stronger binding
# Parent: GMNC docking peptide (human); KNAKRNLSSEFAN
Variant,normalised enrichment score
KNAKRNLCSEFAN [S8C],-0.215
KNARRNLSSEFAN [K4R],0.178
KNAKYNLSSEFAN [R5Y],0.124
KNAKRNLSSEFIN [A12I],0.346
KNAKRNLSSEFQN [A12Q],0.14
KNTKRNLSSEFAN [A3T],0.363
KNAKRNLHSEFAN [S8H],0.297
KNAKRGLSSEFAN [N6G],0.149
KNAKMNLSSEFAN [R5M],0.263
KNAKRELSSEFAN [N6E],0.499
KNAKHNLSSEFAN [R5H],0.445
KNAKNNLSSEFAN [R5N],0.454
KNAKRILSSEFAN [N6I],0.149
KNAKGNLSSEFAN [R5G],0.196
KNAKRNLSVEFAN [S9V],0.472

# Block 2
# Target: ABI1, truncated, D143A, DHFR fusion (Arabidopsis thaliana)
# Technique: DHFR PCA, deep sequencing
# Medium: yeast
# Notes: methotrexate growth selection, single substitutions
# Together with: (+)-ABA 200 µM
# Baseline: wild-type fitted maximum
# Direction: higher = stronger binding
# Parent: PYL1, truncated, DHFR fusion (Arabidopsis thaliana); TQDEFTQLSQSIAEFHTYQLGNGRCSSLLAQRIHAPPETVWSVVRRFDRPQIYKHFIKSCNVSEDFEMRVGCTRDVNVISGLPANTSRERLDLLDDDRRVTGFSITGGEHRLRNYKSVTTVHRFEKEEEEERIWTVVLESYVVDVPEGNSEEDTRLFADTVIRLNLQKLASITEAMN; partner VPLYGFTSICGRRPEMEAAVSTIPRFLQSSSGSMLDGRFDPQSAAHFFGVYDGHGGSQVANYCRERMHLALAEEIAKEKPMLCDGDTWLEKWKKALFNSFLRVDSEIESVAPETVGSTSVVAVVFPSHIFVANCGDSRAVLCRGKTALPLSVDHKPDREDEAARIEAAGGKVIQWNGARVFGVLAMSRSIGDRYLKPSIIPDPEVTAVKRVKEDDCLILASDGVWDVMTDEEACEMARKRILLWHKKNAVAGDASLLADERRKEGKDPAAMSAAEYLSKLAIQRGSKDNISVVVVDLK
Variant,relative binding score [%]
P83L,4.06
D144Y,32.4
S42L,84.5
L82W,56.7
S42N,95
R88S,98.4
G102A,96.2
V40Y,-8.68
S80V,17.8

# Block 3
# Target: Sox-I, HMG box (Salpingoeca helianthica)
# Technique: Spec-seq
# Molecule type: double-stranded DNA, one strand shown
# Medium: in vitro
# Concentration: not given
# Notes: whole probe, mean of replicates
# Baseline: not given
# Direction: lower = stronger binding
# Constant ends, left off below: GAGTCGTCTCGTCAGCAC … CCGTAGAGCACTCAGGTC
# Target sequence (chain): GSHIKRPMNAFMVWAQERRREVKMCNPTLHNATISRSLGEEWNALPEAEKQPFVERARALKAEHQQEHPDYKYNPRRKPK
Strand,relative binding energy
CATTACT,0.447 ln ratio
CATCCTA,0.614 ln ratio
CATACTC,0.567 ln ratio
CATGCCT,1.01 ln ratio
CATTCGT,0.938 ln ratio
ACTGGTT,-0.208 ln ratio
CATAAAC,0.146 ln ratio
CATGACA,0.512 ln ratio

# Single results of other studies
Substance,target,assay,test system,conditions,scale,endpoint,value
"PhoQ, residues 284 288 289 292 302 303 TNASYF","PhoP, residues 12 14 15 18 19 DLLYY (Escherichia coli, UniProt P23836)","Sort-seq, measured: YFP reporter",E. coli,"PhoQ-PhoP variant library, together with: 10 µM Mg2+","baseline: high Mg2+ state, higher = stronger signaling",fold induction,1.61

# A few entries again (block 1):
Variant,normalised enrichment score
KNAKGNLSSEFAN [R5G],0.196
KNAKRELSSEFAN [N6E],0.499
KNAKRGLSSEFAN [N6G],0.149
KNAKMNLSSEFAN [R5M],0.263
